Measured values of several laboratories.
Lines come from different studies, so protocols differ. Numbers after ± are the reported error.
UniProt P05181, sequence (whole entry, looked up): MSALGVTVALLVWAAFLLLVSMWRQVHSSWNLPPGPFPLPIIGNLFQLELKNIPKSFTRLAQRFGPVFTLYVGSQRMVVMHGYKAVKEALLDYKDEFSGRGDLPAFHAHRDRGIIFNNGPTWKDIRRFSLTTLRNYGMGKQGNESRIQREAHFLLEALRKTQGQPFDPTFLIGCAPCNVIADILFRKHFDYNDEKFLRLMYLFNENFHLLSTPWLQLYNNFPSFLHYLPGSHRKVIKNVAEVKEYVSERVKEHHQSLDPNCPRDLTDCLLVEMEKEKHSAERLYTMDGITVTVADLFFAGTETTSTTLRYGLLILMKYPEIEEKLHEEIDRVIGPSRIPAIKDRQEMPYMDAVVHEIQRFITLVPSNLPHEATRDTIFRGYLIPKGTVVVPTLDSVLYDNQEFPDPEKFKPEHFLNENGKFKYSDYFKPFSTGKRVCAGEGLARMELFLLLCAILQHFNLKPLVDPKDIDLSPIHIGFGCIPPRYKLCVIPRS

The revertant colonies of `Cc1nc2cccc(OCC(C)(C)C(=O)NC(C)C)c2c(N)c1C(=O)[O-].[Na+]` is reported as 24 ± 4 colonies/plate (Escherichia coli; reverse mutation, preincubation; WP2 uvrA; 0.13 mg/plate, without S9).
`Oc1ccc2c3c1O[C@H]1[C@@H](O)CC[C@H]4[C@@H](C2)N(CC2CCC2)CC[C@@]341` — result for “log tautomerization constant”: 0.55.
The viability of `Cc1ccc(NS(=O)(=O)c2c(C(=O)N3CCCCCC3)c(C)n(C)c2C)c(Cl)c1` is reported as 97.4% (HaCaT; 0.046 µM, 60 h).
`COc1ccc(-n2cc(C(=O)N3C[C@]4(OC(=O)c5ccccc5NC(C)=O)CC[C@H](OC)[C@@]56[C@@H]4C[C@@H]([C@@H]35)[C@@]3(O)C[C@H](OC)[C@H]4C[C@@H]6[C@]3(O)[C@H]4OC)nn2)cc1` gave a concentration of 52.7 ng/mL (Sprague-Dawley rat, plasma; intravenous, 2 mg/kg, 10 min).
`O=C1NC2(CC2)COc2ncc(F)cc2[C@H]2COCCN2c2ccn3ncc1c3n2` — result for “organ-to-brain weight ratio”: 18.8 ± 2.48% (Sprague-Dawley rat, male, thymus; oral, 10 mg/kg/day, 4 weeks dosing, end of recovery).
The SUVmean of `CC[C@H](C)[C@H](NC(=O)[C@H](CCCCN)NC(=O)CNC(=O)[C@H](CC(C)C)NC(=O)[C@H](Cc1ccccc1)NC(=O)[C@H](CCCCN)NC(=O)[C@H](CO)NC(=O)[C@H](Cc1ccccc1)NC(=O)[C@H](Cc1c[nH]c2ccccc12)NC(=O)[C@H](CCC(N)=O)NC(=O)[C@@H](NC(=O)[C@H](Cc1ccccc1)NC(=O)CCCCCNC(=O)CN1CCN(CC(=O)O)CCN(CC(=O)O)CCN(CC(=O)O)CC1)C(C)C)C(=O)N[C@@H](CCC(=O)O)C(=O)N1CCC[C@H]1C(=O)N[C@@H](CC(=O)O)C(=O)N[C@H](C(=O)N[C@@H](CO)C(=O)N[C@@H](CCC(N)=O)C(=O)N[C@H](C(=O)N[C@@H](CCC(N)=O)C(=O)N[C@@H](CC(=O)O)C(=O)N1CCC[C@H]1C(=O)N[C@@H](CC(N)=O)C(=O)N[C@@H](CC(=O)O)C(=O)N[C@@H](CCC(N)=O)C(=O)N[C@@H](Cc1ccc(O)cc1)C(=O)N[C@@H](CCC(=O)O)C(=O)N1CCC[C@H]1C(=O)N[C@@H](Cc1ccccc1)C(=O)O)C(C)C)C(C)C` [copper-64 labelled] is reported as 2.46 SUV (dynamic PET; mouse both sexes, CT26 tumour, checkpoint inhibitor-treated, tumour; intravenous, 100 µCi/mouse, 130 s).
The protein binding of `CC(=O)NCCCC[C@@H]1NC(=O)[C@H](Cc2c[nH]c3c(C)cccc23)NC(=O)[C@H]([C@@H](C)O)NC(=O)[C@H](CC(N)=O)NC(=O)[C@@H](NC(C)=O)C(C)(C)SSC(C)(C)[C@@H](C(=O)N[C@@H](Cc2ccc(OCCN)cc2)C(=O)N[C@@H](Cc2ccc3ccccc3c2)C(=O)NC2(C(=O)N[C@@H](CCC(=O)O)C(=O)N[C@@H](CC(N)=O)C(=O)N[C@@H](Cc3cccnc3)C(=O)N(C)CC(N)=O)CCOCC2)NC1=O` is reported as 10.6 ± 1.9% (human alpha-1-acid glycoprotein 0.07%; equilibrium dialysis; 0.1 µM).
`Cc1cc(-c2ccc3ccccc3c2)nnc1NCCN1CCN(C)CC1` gave a remaining compound of 103% (Cytochrome P450 2E1 (CYP2E1, Homo sapiens, UniProt P05181); substrate; recombinant enzyme; 1000 nM, 30 min).
For `CN1Cc2cc(Cl)ccc2-n2c(nnc2C2CCN(c3cccc(F)n3)CC2)C1`, the concentration was 1.12 ng/mL (mass spectrometry; male Sprague-Dawley rat, brain; intravenous, 0.03 mg/kg, 1 h).

Excerpt of the above:
The protein binding of `CC(=O)NCCCC[C@@H]1NC(=O)[C@H](Cc2c[nH]c3c(C)cccc23)NC(=O)[C@H]([C@@H](C)O)NC(=O)[C@H](CC(N)=O)NC(=O)[C@@H](NC(C)=O)C(C)(C)SSC(C)(C)[C@@H](C(=O)N[C@@H](Cc2ccc(OCCN)cc2)C(=O)N[C@@H](Cc2ccc3ccccc3c2)C(=O)NC2(C(=O)N[C@@H](CCC(=O)O)C(=O)N[C@@H](CC(N)=O)C(=O)N[C@@H](Cc3cccnc3)C(=O)N(C)CC(N)=O)CCOCC2)NC1=O` is reported as 10.6 ± 1.9% (human alpha-1-acid glycoprotein 0.07%; equilibrium dialysis; 0.1 µM).
